{"data": "Assay results of several laboratories", "cell line": "HEK293"}
{"Structure (SMILES)": "COC(=O)C1=CO[C@@H](C)[C@@H]2Cn3ccc4c5ccccc5nc-4c3C[C@H]12", "assay": "cytotoxicity", "IC50": "> 200 µM"}
{"Structure (SMILES)": "Cc1cc(C)c(-n2c3c([n+](-c4c(C)cc(C)cc4C)[c]2[Au-][Cl])-c2cccc4cccc-3c24)c(C)c1", "assay": "cell growth or viability, MTT", "conditions": "72 h", "IC50": "36 µM"}
{"Structure (SMILES)": "CCCCCCCCCCCCCCCCCC(=O)N[C@@H](CCCCN)C(=O)N[C@@H](CCCCN)C(=O)N[C@@H](CCCCN)C(=O)N[C@@H](CCCCN)C(=O)N[C@@H](CCCCN)C(N)=O", "assay": "cell growth or viability, resazurin", "IC50": "> 32 µg/mL"}
{"Structure (SMILES)": "COc1cc(CNC(=O)C[C@H](C)CCC=C(C)C)ccc1OCc1cn(-c2ccc(Cl)c(Cl)c2)nn1", "assay": "cytotoxicity", "IC50": "696 µM"}
{"Structure (SMILES)": "CCCCCCCCCCCCCCOc1c(O)cc(C(=O)O[C@@H]2Cc3c(O)cc(O)cc3O[C@@H]2c2cc(O)c(O)c(O)c2)cc1O", "assay": "cell growth or viability, CCK-8", "conditions": "24 h", "IC50": "> 150 µM"}
{"Structure (SMILES)": "Nc1ccccc1NC(=O)c1cnccn1", "assay": "cell growth or viability, MTT", "conditions": "48 h", "IC50": "141 µM"}
{"Structure (SMILES)": "CN1CCCNC(=O)c2cccc(c2)C(=O)NCCCN(C)CCCNc2cccc3c2C(=O)c2cccc(c2C3=O)NCCC1", "assay": "cell growth or viability, CCK-8", "conditions": "48 h", "IC50": "1.4 µM"}
{"Structure (SMILES)": "NC(=O)CNC(=O)[C@@H]1CCCN1C(=O)[C@H](Cc1ccc(O)cc1)NC(=O)[C@H](Cc1c[nH]c2ccccc12)NC(=O)[C@@H](Cc1c[nH]c2ccccc12)NC(=O)[C@H](Cc1c[nH]cn1)NC(=O)[C@H](CO)NC(=O)[C@H](Cc1c[nH]c2ccccc12)NC(=O)[C@H](Cc1c[nH]cn1)NC(=O)[C@@H]1CCC(=O)N1", "assay": "cell growth or viability, SRB", "IC50": "0.0005 µM"}
{"Structure (SMILES)": "COC(=O)[C@H](C(C)C)N(C)C(=O)[C@@H]1CCCN1C(=O)[C@H](C)N(C)C(=O)OC(C)(C)C", "assay": "cell growth or viability, SRB", "IC50": "1210 µM"}
{"Structure (SMILES)": "Cc1cc(C)c(-n2c3c([n+](-c4c(C)cc(C)cc4C)[c]2[Cu-][Cl])-c2cccc4cccc-3c24)c(C)c1", "assay": "cell growth or viability, MTT", "conditions": "72 h", "IC50": "1.1 µM"}
{"Structure (SMILES)": "CCCCCCOc1c(O)cc(C(=O)O[C@@H]2Cc3c(O)cc(O)cc3O[C@@H]2c2cc(O)c(O)c(O)c2)cc1O", "assay": "cell growth or viability, CCK-8", "conditions": "24 h", "IC50": "> 150 µM"}
{"Structure (SMILES)": "Fc1ccc(-c2noc(-c3cccs3)c2C(F)(F)F)cc1", "assay": "cell growth or viability, MTT", "conditions": "48 h", "IC50": "92.1 µM"}
{"Structure (SMILES)": "CC(=O)Oc1ccccc1C(=O)[O][Pt]([NH2])([NH2])([Cl])([Cl])[O]C(=O)CCCc1ccccc1", "assay": "cell growth or viability, MTT", "conditions": "72 h", "IC50": "0.11 µM"}
{"Structure (SMILES)": "CCn1cc(/C=C/c2sc3ccccc3[n+]2CC)c2ccccc21", "assay": "cell growth or viability, MTT", "conditions": "24 h", "IC50": "12.8 µM"}
{"Structure (SMILES)": "CCCCCCCCCCCCCC(=O)N[C@@H](CCCCN)C(=O)N[C@@H](CCCCN)C(=O)N[C@@H](CCCCN)C(=O)N[C@@H](CCCCN)C(=O)N[C@@H](CCCCN)C(N)=O", "assay": "cell growth or viability, resazurin", "IC50": "> 32 µg/mL"}
{"Structure (SMILES)": "CCN(CC)CCN1C(=O)c2ccc3c4cccc5c(NCCN)ccc(c6ccc(c2c36)C1=O)c54", "assay": "cell growth or viability, SRB", "conditions": "72 h", "IC50": "204 µM"}
{"Structure (SMILES)": "CC(C)Cc1ccc(C(C)C(=O)[O][Pt]([NH2])([NH2])([Cl])([Cl])[O]C(=O)CCCc2ccccc2)cc1 (stereo not drawn)", "assay": "cell growth or viability, MTT", "conditions": "72 h", "IC50": "0.13 µM"}
{"Structure (SMILES)": "O=C1NCC(Cc2ccccc2)N(CC2CCCN2CC(CC2CCCCC2)N2CC(Cc3ccc(O)cc3)N(CCc3ccccc3)C(=O)C2=O)C1=O (stereo not drawn)", "assay": "cell growth or viability", "conditions": "72 h", "IC50": "> 100 µM"}
